Experimental data collected from several papers.
Parts stem from different laboratories: compare values within a part only. “And” joins repeats or separate records; there may be more than shown.
Chain of UniProt P35968 (whole entry, looked up): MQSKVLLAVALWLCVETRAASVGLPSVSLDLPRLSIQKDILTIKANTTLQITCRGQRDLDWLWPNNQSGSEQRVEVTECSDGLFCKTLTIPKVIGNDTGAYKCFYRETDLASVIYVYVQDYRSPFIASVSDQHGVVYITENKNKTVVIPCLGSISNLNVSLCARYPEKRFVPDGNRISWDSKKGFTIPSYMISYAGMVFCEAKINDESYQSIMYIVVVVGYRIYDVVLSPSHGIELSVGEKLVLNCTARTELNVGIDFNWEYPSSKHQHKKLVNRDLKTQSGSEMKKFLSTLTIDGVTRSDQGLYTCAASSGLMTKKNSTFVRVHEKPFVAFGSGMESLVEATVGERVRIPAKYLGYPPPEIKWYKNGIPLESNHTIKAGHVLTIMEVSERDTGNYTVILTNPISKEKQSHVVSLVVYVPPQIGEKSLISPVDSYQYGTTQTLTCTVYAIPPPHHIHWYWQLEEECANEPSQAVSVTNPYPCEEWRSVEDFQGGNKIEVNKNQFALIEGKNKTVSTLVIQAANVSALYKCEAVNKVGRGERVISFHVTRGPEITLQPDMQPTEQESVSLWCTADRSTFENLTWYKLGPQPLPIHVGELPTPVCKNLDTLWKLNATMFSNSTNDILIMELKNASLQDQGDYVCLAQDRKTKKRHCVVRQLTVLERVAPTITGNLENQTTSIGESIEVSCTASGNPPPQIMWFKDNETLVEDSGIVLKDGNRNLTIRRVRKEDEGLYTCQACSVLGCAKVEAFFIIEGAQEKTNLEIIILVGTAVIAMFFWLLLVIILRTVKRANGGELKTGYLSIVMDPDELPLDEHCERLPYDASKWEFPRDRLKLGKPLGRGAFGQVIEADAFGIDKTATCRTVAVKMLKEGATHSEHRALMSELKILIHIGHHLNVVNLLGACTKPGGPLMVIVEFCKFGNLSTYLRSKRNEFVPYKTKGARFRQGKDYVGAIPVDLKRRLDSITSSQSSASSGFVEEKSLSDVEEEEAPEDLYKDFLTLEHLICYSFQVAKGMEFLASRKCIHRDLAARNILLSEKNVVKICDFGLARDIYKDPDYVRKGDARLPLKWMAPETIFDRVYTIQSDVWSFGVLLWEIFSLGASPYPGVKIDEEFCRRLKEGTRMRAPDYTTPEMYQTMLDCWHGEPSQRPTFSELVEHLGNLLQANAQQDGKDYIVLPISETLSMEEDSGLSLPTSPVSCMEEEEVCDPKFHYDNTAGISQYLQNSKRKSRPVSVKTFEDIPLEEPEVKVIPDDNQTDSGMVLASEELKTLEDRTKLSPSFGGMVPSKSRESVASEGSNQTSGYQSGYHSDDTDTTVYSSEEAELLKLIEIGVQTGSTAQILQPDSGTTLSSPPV
Chain of UniProt Q9UPZ9 (whole entry, looked up): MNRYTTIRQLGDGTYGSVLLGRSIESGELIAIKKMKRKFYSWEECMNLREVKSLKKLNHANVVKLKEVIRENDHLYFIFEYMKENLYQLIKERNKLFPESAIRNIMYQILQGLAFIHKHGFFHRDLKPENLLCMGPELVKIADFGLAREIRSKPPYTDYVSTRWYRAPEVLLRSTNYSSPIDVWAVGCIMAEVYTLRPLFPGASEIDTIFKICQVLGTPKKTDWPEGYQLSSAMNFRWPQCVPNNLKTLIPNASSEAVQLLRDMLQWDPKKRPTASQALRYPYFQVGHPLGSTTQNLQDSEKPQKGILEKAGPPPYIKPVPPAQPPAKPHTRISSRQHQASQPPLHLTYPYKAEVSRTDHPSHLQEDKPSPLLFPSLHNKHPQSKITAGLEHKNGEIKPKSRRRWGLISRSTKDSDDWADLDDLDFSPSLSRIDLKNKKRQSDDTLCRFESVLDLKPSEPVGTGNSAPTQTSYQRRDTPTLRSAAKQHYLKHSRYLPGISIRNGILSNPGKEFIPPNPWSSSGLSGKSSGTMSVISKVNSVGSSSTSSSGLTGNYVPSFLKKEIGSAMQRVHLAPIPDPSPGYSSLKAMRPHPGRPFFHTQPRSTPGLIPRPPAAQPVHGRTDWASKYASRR
Chain of UniProt O43293 (whole entry, looked up): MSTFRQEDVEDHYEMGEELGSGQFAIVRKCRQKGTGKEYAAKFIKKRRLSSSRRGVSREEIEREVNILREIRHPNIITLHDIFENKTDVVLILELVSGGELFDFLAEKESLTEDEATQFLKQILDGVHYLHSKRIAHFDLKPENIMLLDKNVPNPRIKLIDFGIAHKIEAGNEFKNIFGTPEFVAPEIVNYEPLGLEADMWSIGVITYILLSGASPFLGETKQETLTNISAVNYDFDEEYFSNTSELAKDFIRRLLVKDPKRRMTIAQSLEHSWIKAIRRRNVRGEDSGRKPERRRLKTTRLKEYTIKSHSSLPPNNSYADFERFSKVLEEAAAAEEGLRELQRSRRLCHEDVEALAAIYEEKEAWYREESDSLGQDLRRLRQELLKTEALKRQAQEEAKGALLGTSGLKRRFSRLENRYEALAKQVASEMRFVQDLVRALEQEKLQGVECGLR
Chain of UniProt P07949 (whole entry, unmodified, looked up): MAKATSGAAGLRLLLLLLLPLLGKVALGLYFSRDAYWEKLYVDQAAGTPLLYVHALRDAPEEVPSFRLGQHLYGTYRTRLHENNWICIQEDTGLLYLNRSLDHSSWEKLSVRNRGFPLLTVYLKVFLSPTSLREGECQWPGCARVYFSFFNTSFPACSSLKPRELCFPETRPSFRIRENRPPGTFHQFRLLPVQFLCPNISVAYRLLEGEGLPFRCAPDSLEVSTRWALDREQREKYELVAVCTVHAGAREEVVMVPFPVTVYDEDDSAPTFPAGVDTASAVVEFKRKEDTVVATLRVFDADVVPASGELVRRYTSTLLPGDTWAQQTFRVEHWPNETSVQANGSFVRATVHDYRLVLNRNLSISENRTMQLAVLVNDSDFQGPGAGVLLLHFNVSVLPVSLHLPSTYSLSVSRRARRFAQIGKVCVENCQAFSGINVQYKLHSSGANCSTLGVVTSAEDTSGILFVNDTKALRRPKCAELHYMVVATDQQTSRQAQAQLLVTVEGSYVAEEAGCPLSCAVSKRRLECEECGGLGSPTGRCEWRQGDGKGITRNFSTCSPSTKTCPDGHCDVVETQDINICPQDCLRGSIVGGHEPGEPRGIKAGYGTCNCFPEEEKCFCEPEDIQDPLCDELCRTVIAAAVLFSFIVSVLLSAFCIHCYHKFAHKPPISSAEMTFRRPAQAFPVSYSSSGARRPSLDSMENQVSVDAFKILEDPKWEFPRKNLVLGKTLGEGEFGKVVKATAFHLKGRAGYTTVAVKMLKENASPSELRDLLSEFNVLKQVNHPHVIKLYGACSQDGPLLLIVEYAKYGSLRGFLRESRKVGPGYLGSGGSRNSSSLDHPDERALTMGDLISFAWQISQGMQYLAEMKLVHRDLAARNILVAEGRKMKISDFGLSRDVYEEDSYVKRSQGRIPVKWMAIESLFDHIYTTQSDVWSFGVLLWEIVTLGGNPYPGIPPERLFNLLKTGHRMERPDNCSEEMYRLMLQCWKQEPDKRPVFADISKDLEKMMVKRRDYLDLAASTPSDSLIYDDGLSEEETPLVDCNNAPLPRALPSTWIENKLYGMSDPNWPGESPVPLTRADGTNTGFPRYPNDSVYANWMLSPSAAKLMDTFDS
Chain of UniProt O94921 (whole entry, looked up): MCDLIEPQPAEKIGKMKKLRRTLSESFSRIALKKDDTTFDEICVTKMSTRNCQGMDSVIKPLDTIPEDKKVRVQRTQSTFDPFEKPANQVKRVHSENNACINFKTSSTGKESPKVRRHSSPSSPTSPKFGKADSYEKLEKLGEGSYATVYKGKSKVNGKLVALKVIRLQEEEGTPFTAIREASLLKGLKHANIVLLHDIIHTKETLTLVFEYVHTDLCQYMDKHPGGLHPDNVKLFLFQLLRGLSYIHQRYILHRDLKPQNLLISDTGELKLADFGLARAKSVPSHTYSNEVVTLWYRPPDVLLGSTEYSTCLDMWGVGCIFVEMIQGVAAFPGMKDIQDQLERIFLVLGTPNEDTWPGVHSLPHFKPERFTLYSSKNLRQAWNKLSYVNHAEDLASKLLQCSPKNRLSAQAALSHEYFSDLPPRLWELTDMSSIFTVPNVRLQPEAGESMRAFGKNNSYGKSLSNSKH

Block 1
SMILES: Cc1cc2c(C(N)=O)c(N)n(-c3c(C)ccc(O)c3C)c2nc1C
target or system	test	conditions	inhibition
RKO	cell proliferation	4.572 nM	-5.75% and -0.02%
NCI-H1648	cell proliferation	13.72 nM	-26.9% and -21.8% and -24.6%
SRC (Homo sapiens, UniProt P12931)	kinase activity, inhibitor, HTRF	0.004572 µM	40.9%
NCI-H1568	cell proliferation	13.72 nM	4.17% and 10.5% and 6.15%

Block 2
Target: Cyclin-dependent kinase 2, with cyclin E (CDK2, Homo sapiens, UniProt P24941)
Observed: enzyme activity
Mode: inhibitor
Concentration: 0.5 µM
Baseline: control
Structure (SMILES)	remaining activity
COc1cc2ncnc(Nc3ccc(F)c(Cl)c3)c2cc1OCCCN1CCOCC1	101%
OCC(O)CCON=C1C(c2c(O)[nH]c3ccccc23)=Nc2ccccc21 (centres unmarked)	23.1%
O=C(O)c1ccc2c3c1cccc3c(=O)n1c3ccccc3nc21	90.9%
CN(C)c1ccc(C=C2C(=O)Nc3ccccc32)cc1	97.1%
O=C1NC(=O)C(c2cn(CCCn3ccnc3)c3ccccc23)=C1Nc1ccccc1	81.8%
O=C1NC(=O)C(c2cn(CCCO)c3ncccc23)=C1c1cnccn1	85.1%
Cc1nc(-c2ccccc2)c(-c2ccncc2)o1	93.4%
COc1ccc(C(=O)Nc2sc3c(c2C(N)=O)CCCC3)cc1OC	94.6%
Cc1ccc(NC(=O)c2ccc(CN3CCN(C)CC3)cc2)cc1Nc1nc(-c2cccnc2)cs1	95%
Oc1ccc(-c2nc(-c3ccncc3)c(-c3ccc(F)cc3)[nH]2)cc1	90.6%
Cc1cccc(-c2[nH]c(C(C)(C)C)nc2-c2ccc3c(c2)OCO3)n1	95.6%
COc1ccc(CNC(=O)Nc2ncc([N+](=O)[O-])s2)cc1	97.6%
COc1cc2nccc(Oc3ccc(NC(=S)NC(=O)c4ccccc4C)cc3)c2cc1OC	96.7%
N#CC(C#N)=C(N)/C(C#N)=C/c1ccc(O)cc1	97%

Block 3
Organism: Plasmodium berghei
Mode: inhibitor
Cell line: Huh-7
Strain: GFP-expressing, liver stage
Concentration: 10 µM
Time: 24 h
Baseline: untreated control
Structure (SMILES)	infection rate
CC(C)NCC(O)COc1cccc2[nH]ccc12 (centres unmarked)	105%
CC[C@]1(O)C[C@H]2CN(CCc3c([nH]c4ccccc34)[C@@](C(=O)OC)(c3cc4c(cc3OC)N(C=O)[C@H]3[C@@](O)(C(=O)OC)[C@H](OC(C)=O)[C@]5(CC)C=CCN6CC[C@]43[C@@H]65)C2)C1	75%
Nc1ccc(S(=O)(=O)Nc2nccs2)cc1	96.4%
Cc1noc(NS(=O)(=O)c2ccc(N)cc2)c1C	92.4%
CO[C@H]1C[C@H](O[C@H]2[C@H](C)[C@@H](O[C@@H]3O[C@H](C)C[C@H](N(C)C)[C@H]3OC(C)=O)[C@@H](C)C[C@@]3(CO3)C(=O)[C@H](C)[C@@H](OC(C)=O)[C@@H](C)[C@@H](C)OC(=O)[C@@H]2C)O[C@@H](C)[C@@H]1OC(C)=O	72%
COc1cnc(NS(=O)(=O)c2ccc(N)cc2)nc1	114%
O=C1OC(c2ccc(O)cc2)(c2ccc(O)cc2)c2ccccc21	87.2%
Cn1cnc2c1c(=O)[nH]c(=O)n2C	90%

Block 4
Compound: CN(C)CC#Cc1ccc(OCCCc2sc(N3CCc4cccc(C(=O)Nc5nc6ccccc6s5)c4C3)nc2C(=O)O)c(F)c1
Observed: cell-free assay
Technique: competition with immobilised ligand
Concentration: 1 µM
target	remaining binding
CILK1 (Homo sapiens, UniProt Q9UPZ9)	100%
DAPK3 (Homo sapiens, UniProt O43293)	90%
CDK2 (Homo sapiens, UniProt P24941)	100%
KDR (Homo sapiens, UniProt P35968)	100%
RET (Homo sapiens, UniProt P07949, M918T)	100%
CDK14 (Homo sapiens, UniProt O94921)	100%
